Results of several laboratories.
A part holds a random share of what one study measured.

Study 1
Target: Histone acetyltransferase KAT6A, both winged helices, GST fusion (KAT6A, Homo sapiens, UniProt Q92794, residues 1-181)
Method: protein binding microarray
Molecule type: double-stranded DNA, one strand shown
Matrix: in vitro
Concentration: not given
Setting: 8-mer, flanks averaged, mean of 2 arrays, mostly near background
Reference: not given
Direction: higher = stronger binding
Residues (chain): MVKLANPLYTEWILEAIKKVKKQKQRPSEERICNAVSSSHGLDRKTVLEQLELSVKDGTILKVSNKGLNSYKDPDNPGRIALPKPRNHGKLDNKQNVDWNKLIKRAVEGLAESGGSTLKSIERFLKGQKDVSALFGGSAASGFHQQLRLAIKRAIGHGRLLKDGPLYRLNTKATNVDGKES
Strand | E-score
CGGCCAAA | 0.131
AAAAGCTC | -0.105
AAGGCTTC | -0.124
GACGGGTA | 0.195
GATCAAGA | 0.0515

Study 2
Target: Sal-like protein 4, full length isoform A (SALL4, Homo sapiens, UniProt Q9UJQ4, residues 1-1053)
UniProt Q9UJQ4, sequence (whole entry, looked up): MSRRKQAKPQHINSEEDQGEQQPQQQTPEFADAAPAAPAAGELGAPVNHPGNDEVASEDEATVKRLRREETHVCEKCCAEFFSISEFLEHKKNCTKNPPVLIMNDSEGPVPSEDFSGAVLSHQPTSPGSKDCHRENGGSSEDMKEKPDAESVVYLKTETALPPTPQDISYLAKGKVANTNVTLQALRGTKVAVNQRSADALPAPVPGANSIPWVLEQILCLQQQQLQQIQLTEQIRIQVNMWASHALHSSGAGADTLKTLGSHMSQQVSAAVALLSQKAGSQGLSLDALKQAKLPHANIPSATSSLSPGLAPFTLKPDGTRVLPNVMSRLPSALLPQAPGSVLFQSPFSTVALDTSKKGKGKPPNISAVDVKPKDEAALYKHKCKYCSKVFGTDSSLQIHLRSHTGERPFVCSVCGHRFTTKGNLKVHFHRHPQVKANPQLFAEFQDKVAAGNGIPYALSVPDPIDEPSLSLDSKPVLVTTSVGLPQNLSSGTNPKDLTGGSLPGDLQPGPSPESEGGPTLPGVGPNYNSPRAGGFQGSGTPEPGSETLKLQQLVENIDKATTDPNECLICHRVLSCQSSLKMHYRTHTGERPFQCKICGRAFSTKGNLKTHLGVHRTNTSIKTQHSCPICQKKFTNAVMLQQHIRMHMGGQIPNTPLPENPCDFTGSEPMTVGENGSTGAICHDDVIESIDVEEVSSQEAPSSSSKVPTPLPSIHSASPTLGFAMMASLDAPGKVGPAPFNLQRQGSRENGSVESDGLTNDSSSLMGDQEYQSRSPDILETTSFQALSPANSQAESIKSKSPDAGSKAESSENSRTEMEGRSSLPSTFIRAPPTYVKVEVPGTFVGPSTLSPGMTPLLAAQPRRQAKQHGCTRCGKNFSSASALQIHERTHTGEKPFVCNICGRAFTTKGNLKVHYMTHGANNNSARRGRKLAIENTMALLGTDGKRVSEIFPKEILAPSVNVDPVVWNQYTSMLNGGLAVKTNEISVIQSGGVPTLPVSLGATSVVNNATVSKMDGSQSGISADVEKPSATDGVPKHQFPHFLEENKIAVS
Method: universal PBM
Molecule type: double-stranded DNA, one strand shown
Matrix: in vitro
Concentration: 600 nM
Setting: 8-mer, flanks averaged, mean of replicates
Direction: higher = stronger binding
Strand | E-score
ACAGGGAG | -0.244
AATTATTG | 0.443
ACGTCAAT | 0.0186
AGAATTTA | 0.278
GAGACTAA | 0.189
GATTTGTA | 0.184

Study 3
Target: Phosphate system positive regulatory protein PHO4, full length, GST-tagged (PHO4, Saccharomyces cerevisiae, UniProt P07270, residues 1-312)
Method: competition protein-binding microarray
Molecule type: double-stranded DNA, one strand shown
Matrix: in vitro
Concentration: 2 µM
Setting: whole 60-bp probe, lowest competitor level
Together with: Cbf1 competitor, 0.05 µM
Direction: higher = stronger binding
All sequences stand within: … GTCTTGATTCGCTTGACGCTGCTG
Target sequence (chain): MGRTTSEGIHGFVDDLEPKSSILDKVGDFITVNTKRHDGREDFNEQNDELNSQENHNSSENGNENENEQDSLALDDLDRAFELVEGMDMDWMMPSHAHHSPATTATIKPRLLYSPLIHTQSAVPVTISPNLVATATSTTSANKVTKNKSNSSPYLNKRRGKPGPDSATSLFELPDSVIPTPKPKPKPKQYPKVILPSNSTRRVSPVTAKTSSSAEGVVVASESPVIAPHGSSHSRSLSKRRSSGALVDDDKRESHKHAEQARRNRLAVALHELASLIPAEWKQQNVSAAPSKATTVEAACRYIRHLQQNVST
Strand | fluorescence intensity
TTGCAAAAAAAGAATGGCGTGGGTAGGGGCGATTAT | 7010 a.u.
CTTCTGTAAATTTGACGGGTGGGTGGACGCGCCCCG | 4550 a.u.
GGCATTATCCTTCCGCACGTTTCTTGGATAATTCAT | 13200 a.u.
TAACGCTGGGTTTTGCACGTGTTGATAATTACATCG | 18700 a.u.
CCTGACAACAAGAAGAGGATTGCAGAGCTTTTAGAC | 3870 a.u.
CGTCCTAGAGATTAGCACGTGTTTTCCATGAGGAAG | 17900 a.u.

Single results of other studies
Molecule | target | assay | test system | setting | how to read | endpoint | result
PhoQ, residues 284 288 289 292 302 303 SSTLLI | PhoP, residues 12 14 15 18 19 SQCLL (Escherichia coli, UniProt P23836) | Sort-seq, item: YFP reporter | E. coli | PhoQ-PhoP variant library, together with: 10 µM Mg2+ | reference: high Mg2+ state, higher = stronger signaling | fold induction | 12.6
